Assay results collected from several papers.
Each numbered part is a random draw from the data of one study; scales do not carry over between parts. Substitutions count along the parent as printed.

Study 1 — technique: RNA Bind-n-Seq; molecule type: RNA; matrix: in vitro; tested at: 365 nM; baseline: no-protein control; reading: higher = stronger binding; measurement: RBNS enrichment (R)
Target: RNA binding protein fox-1 homolog 2, RRM domain, GST-SBP tag (RBFOX2, Homo sapiens, UniProt O43251-10, residues 100-194)
Setting: natural RNA segment, single round, ends assumed
Residues (chain): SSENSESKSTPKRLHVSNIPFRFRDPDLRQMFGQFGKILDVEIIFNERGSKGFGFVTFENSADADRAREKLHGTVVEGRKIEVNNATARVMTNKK
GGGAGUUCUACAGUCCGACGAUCGGGGAAGCUGGGCAUCAGUGGCCACAUGGGCAUCAGGGGCUGGCCCCACAGAGACCCCACAGGGCAGUGAGCUCUGUCUUCCCCCACCUGCCUAGCCCAUCAUCUAUCUAUGGAAUUCUCGGGUGCCAA: 0.218
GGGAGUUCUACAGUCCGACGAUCGGAAGGAGGCAGACUGAUGGCGAUUCCCUCUCACCCGGGACUCUCCCCCUUUCAAGGAAAGUGAACCUUUAAAGUAAAGGCCUCAUCUCCUUUAUUGCAGUUCAAAUCCUUGGAAUUCUCGGGUGCCAA: 0.268
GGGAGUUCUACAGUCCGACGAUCCCACUCACCCCUCAGACUCCUGCUGCCCAUGCUGUGGCCGGACUUGUCAGCAGGGGGCCUGGUGGGAGGAGCGACUGCCCUGCCCAAAUGAACUGCCACAGCAGGGACAGUGGAAUUCUCGGGUGCCAA: 0.6
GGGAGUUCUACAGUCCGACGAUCCUUAACUGUGGCAAAAAUAAUGACAUGUAGCAAAGAUUUUAAAACAAAGUAUUUUUUCUUUUAUAAAUUGUGUUGUGUUGUGUGAUAUUAUUGAUUGCGGCUCCCUGACCUGGAAUUCUCGGGUGCCAA: 0.567
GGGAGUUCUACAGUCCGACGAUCGUUCAUGCUCAGCCCUGAACUCUAAUCUAGCCUGCAACCAGCCCUUCUCUCCUCUUAUCAUCUAACAUACCCUACUUGGAAAGAUCUAAGAUCUCAAUCUUAUCCUUUGCUGGAAUUCUCGGGUGCCAA: 0.53
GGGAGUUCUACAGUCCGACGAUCGCUCUUCUUGGGGAAAGUGGUCAACCCAGCUGCUGGGUAAUUGUGGUGGGGAGGCCACAGGAAGGCCCAACCUGCACGGCAGGACCCCCCUGCAUGGCAGGACCCCUGUGUGGAAUUCUCGGGUGCCAA: 0.542
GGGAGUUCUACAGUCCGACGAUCAUCUGUGUCAACCCUCUGCCUGCAGGGACAGAUAAAUGGAACUCUGGUUGUGAUAUCAUAACUAAGAUCAGUCACCUCCCAGGAGUCUGCAGAGUUCUAGGUACACCACCUGGAAUUCUCGGGUGCCAA: 1.31
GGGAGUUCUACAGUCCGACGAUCGAGAGUGAAGAAGAUGAAGACAGAUGCAGCCAGCCAGUCACACGAGAGGCCUGGCUUGCCUUGCCCAGUGCUGCCUAUAGCAUCCUCCCAGGGAGGCUUGCCCUGUGCCAUGGAAUUCUCGGGUGCCAA: 1.14
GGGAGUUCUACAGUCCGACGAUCCUCAGCUAUCCUUCUAAUUUCUCUCUAAUUUCAAUUUGUUUAUAUUUACCUCUGGGCUCAAUAAGGGCAUCUGUGCAGAAAUUUGGAAGCCAUUUAGAAAAUCUUUUGGAUGGAAUUCUCGGGUGCCAA: 0.626
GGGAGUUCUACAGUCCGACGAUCGCUUUUCUUCCUCAGGAGUAUGAAUUUUCUGAGCUAGCUGCUGUAAAUUCAGUGAGGCUAAAGGGAUACUUGAAUGUUAUUUUUUUUCUCCUAAGAAAAUGGGAGGCUACUGGAAUUCUCGGGUGCCAA: 0.958
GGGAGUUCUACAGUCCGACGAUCUUUUCUUUUGUUUUUUGAAGUGUUGGGGUUUGGUUUUGUUUUUUGAGUCUUUUUUUUUUAAGUGAAAUUUAUUGAGGAAAAAUAUGUGAAGGACCUUCACUCUAAGAUGUUGGAAUUCUCGGGUGCCAA: 0.995
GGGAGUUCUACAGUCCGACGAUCCUGCCAUUACACGGUCUUGUGAUGUGACUAAAAGCCACUUUGUGACUCCCUUCAUGUAAUCCUCUUUUCCUCCCCACUCCUCCACAGAGGGCAGAGCUCAGGACAUUUGCUGGAAUUCUCGGGUGCCAA: 0.441

Study 2 — technique: DHFR PCA, deep sequencing; matrix: yeast; added: (+)-ABA 0.032 µM; baseline: wild-type fitted maximum; reading: higher = stronger binding; measurement: relative binding score
Target: ABI1, truncated, D143A, DHFR fusion (Arabidopsis thaliana)
Setting: methotrexate growth selection, single substitutions
Parent: PYL1, truncated, DHFR fusion (Arabidopsis thaliana); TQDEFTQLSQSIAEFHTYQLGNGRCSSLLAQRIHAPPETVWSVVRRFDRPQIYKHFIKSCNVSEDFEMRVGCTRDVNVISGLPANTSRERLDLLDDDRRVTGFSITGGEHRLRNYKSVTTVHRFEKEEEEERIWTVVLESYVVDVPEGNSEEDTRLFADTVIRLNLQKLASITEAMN
I105F: -5.07%
R69S: 12.3%
E64R: 22.4%
L138K: 1.05%
S104H: -0.905%
R123P: 21.3%
V143H: 0.765%
E131P: 69.3%
R32D: -5.95%
E139T: 14%
P37R: -0.846%
L169M: -3.74%
R46L: -3.47%
F47E: -7.65%
D153T: -4.04%

Study 3 — technique: RNA Bind-n-Seq; molecule type: RNA; matrix: in vitro; tested at: not given; setting: RNA with constant flanks, ends assumed; baseline: input RNA pool; reading: higher = stronger binding; measurement: bound/input enrichment
Target: RING finger protein unkempt homolog, zinc fingers 1-6, GST-SBP tag (UNK, Homo sapiens, UniProt Q9C0B0, residues 30-357)
Construct (chain): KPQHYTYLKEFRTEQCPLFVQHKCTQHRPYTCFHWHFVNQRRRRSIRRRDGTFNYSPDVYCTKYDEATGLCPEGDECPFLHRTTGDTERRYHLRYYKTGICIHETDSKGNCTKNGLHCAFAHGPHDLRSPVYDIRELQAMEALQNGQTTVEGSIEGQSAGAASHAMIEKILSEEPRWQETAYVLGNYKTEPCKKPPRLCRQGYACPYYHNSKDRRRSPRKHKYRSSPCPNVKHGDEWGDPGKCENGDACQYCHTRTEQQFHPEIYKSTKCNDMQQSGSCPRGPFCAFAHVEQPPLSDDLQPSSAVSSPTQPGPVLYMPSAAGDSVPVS
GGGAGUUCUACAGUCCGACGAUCACUGAGCAGAAUGAAGAGUUGAGUAUCUUAUAUCCAGCUGCCAUUGUGACUAUUGAUGGAUUCCGCCUUUUUCAAUCUCUUCGUGCUUGUCGAAAUCAGGUAGCAAAAGCUGCAGCAUCACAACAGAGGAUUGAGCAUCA: 0.153 ratio
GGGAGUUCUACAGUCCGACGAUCGGGGUGCCAGCGCUGACGCAGAACCUACCAAGGAUACUCAGAAAAGAACGUCCUAUAUCAUCCGGGAUUUUCCCUCUACCUGCUGGAGAUGGAUUGCUUACACCUGACACUCAGAAAGGACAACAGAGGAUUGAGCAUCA: 0.145 ratio
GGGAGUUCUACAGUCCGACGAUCGGACAUUCUUGAGGUUUAACCUUGAUCCCUUGUGCUUCGGGCCCCAGCCUGUUGCUUGUGUCCGCAGAGGUUUGGUCAGCUCUGUGCCACUGCUCCAGAGAAGUACUACUCACUGGCCUGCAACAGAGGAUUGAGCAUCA: 0.13 ratio
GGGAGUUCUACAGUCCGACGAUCAUAGCUUUCCAAAAGAAGCUCUUUCAGACCCUGAGGAGACACCCUUCCUAUCCCAAAAUAACCGAAGAAUUUGUUAGUGGCCUGGAGUCUUACAUUGAGGAUGAAGACAGUUUCAGGAACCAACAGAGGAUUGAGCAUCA: 0.222 ratio
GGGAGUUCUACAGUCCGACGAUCCUAGAGAUUUACUACAUCCGUCCUUGGAAGAGGAAAAGAAAAAACAUAAAAAGAAACGCCCCGUACAAAGUCCAAAUUCUUACUUUAUGGAUGUAAAAUGUCCAGGUUGCUACAAGAUCACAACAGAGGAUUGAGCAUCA: 0.488 ratio
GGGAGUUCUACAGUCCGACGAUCUGUUGAUGACUUCUUGUGGCAUUUCACACACUGUAGAUGGUCACUCCCUUCAUGUCCAUGUCCGCUCAUGGUGUAAGAUGAUGUCUUGUCAGUAUUACUGUUUUGCUAAGCCGCUUCAUUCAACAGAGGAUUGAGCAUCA: 0.076 ratio
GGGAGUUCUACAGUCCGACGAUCUCAGAGUGGGGUUUUUCUCAAUUUCCUUGGAACUGAUUAAAAAGAAAUACAACAUCAUCAACCGAUUACAUUAUUCCCUGUGCGGGAUCCAGUUCAAUACGAUGCAUGAGACAUGCUGCACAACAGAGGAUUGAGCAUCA: 0.215 ratio
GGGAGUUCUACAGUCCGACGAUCGGGAAGCAGUUUGACUCUCCCAUGCCAAGCCCCUUCCAUGGUGGAAGUUUCACUCUUCCCUCCGACACUAUGAAGAAUGAGAGAGUCUCAGAAGGACCACGACCCUUUGCCCCUGUCUUCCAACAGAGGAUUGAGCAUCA: 0.171 ratio
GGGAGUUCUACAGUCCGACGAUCCAACUUGGGGAAGAUAUCCGACGAAUUCCCAUUCAUAAUGAAGACAUUACUUACGAUGAAUCCGUGCUAAUGAUGCAGCGAGUAUUCAGAGGAAAGCUUCUGAGUAAUGAUGAAGUUACACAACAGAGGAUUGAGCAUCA: 0.104 ratio
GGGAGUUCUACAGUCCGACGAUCUUGUUAAAAUGCUAUUUCCUUUAUUACCUUGGAAACUGACUCAGCCUCUUGUUGCUCCUAAUCCGGGUUUAAGGCUCUUGUAAGUUGCAGAUAAAAGGAUUCAUUUUAACAAUAGAAGGACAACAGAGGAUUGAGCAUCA: 0.19 ratio
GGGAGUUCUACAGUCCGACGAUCUCAACAGACAACAUCAAAUACCAGCCUAAAGGGGGGCAGGUACAAAUUGUUACCAAGAAAACCGACCUAAGCCAUGUGACAUCCAAAUGUGGCUCUCUGAAGAACAUCCGCCACAGGCCACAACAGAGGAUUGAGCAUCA: 0.113 ratio

Study 4 — target: CCNB1, cyclin fold, Cln2 fusion (human); technique: yeast growth competition, sequencing; matrix: yeast; setting: weak parent motif; baseline: not given; reading: higher = stronger binding; measurement: normalised enrichment score
Parent: SCAPER docking peptide (human); SNARRSLNFGGST
F9W: 0.904
F9P: 0.624
S12A: 0.991
G10Y: 0.658
R5M: 0.924
A3T: 0.851
T13K: 0.58
N2S: 0.723
G10E: 0.26
T13Y: 0.0824
R5S: 0.495
T13G: 0.56
R4Y: 0.53
R5T: 0.252
R5D: 0.178

Other studies, line by line
PhoQ, residues 284 288 289 292 302 303 SLCLSL
fold induction (PhoP, residues 12 14 15 18 19 NQFFI (Escherichia coli, UniProt P23836); Sort-seq, item: YFP reporter; E. coli; PhoQ-PhoP variant library, added: 10 µM Mg2+; baseline: high Mg2+ state, higher = stronger signaling): 8.55

Some of these lines once more (study 2):
P37R: -0.846%
L169M: -3.74%
R46L: -3.47%
F47E: -7.65%
